Experimental data pooled from the literature.
Organism: Staphylococcus aureus

SMILES | assay | test system | conditions | MIC
CCCCCCCCCC(=O)N[C@@H](Cc1c[nH]c2ccccc12)C(=O)N[C@H](CC(N)=O)C(=O)N[C@@H](CC(=O)O)C(=O)N[C@@H]1C(=O)NCC(=O)N[C@@H](CCCN)C(=O)N[C@@H](CC(=O)O)C(=O)N[C@H](C)C(=O)N[C@@H](CC(=O)O)C(=O)NCC(=O)N[C@H](CO)C(=O)N[C@@H]([C@H](C)CC(=O)O)C(=O)N[C@@H](CC(=O)c2ccccc2N)C(=O)O[C@@H]1C |  | CRB, PBP4 deletion |  | 2 µg/mL
CC[C@H](C)[C@H](NC(=O)[C@H](CC(C)C)NC(=O)[C@H](CCCNC(=N)N)NC(=O)[C@@H](N)CCCNC(=N)N)C(=O)N[C@@H](CCCNC(=N)N)C(=O)N[C@H](C(=O)N[C@@H](CCCCN)C(=O)N[C@H](C(=O)NCC(=O)N1CCC[C@H]1C(=O)N[C@H](C(=O)N[C@H](C(=O)N[C@@H](Cc1ccc(O)cc1)C(=O)N[C@@H](CCCCN)C(=O)N[C@@H](Cc1ccc(O)cc1)C(=O)N[C@@H](Cc1ccccc1)C(=O)N[C@@H](CCCCN)C(=O)N[C@@H](CCCCN)C(=O)N[C@@H](CCC(N)=O)C(=O)N[C@@H](CC(C)C)C(=O)N[C@@H](CC(C)C)C(=O)N[C@@H](CCCCN)C(=O)N[C@@H](CCCCN)C(N)=O)[C@@H](C)CC)[C@@H](C)CC)[C@@H](C)O)[C@@H](C)O |  | CCARM 3095, methicillin-resistant, Mueller-Hinton broth | 24 h | > 128 µM
CC[C@H](C)[C@H](N)C(=O)N[C@@H](CC(C)C)C(=O)NCC(=O)N[C@H](CCCNC(=N)N)C(=O)N[C@H](C(=O)N[C@H](C(=O)N[C@@H](CCCCN)C(=O)NCC(=O)N[C@H](C(=O)N[C@@H](CCCCN)C(=O)N[C@@H](CC(=O)O)C(=O)N[C@H](C(=O)N[C@@H](CC(C)C)C(N)=O)[C@@H](C)CC)[C@@H](C)CC)C(C)C)[C@@H](C)CC | broth microdilution | MRSA ATCC 33591, Mueller-Hinton broth | 16 h, 37 °C | 50 µM
COc1ccnc(NC(=S)N2CCN(c3ncc(C(F)(F)F)cc3Cl)CC2)c1 |  | MSSA clinical strain |  | 3.3 µM
CC[C@H](C)[C@H](NC(=O)[C@H](Cc1ccccc1)NC(=O)[C@@H](NC(=O)[C@H](Cc1ccccc1)NC(=O)[C@@H]1CCCN1C(=O)[C@@H](NC(=O)[C@H](C)N)[C@@H](C)CC)[C@@H](C)CC)C(=O)N[C@@H](Cc1c[nH]c2ccccc12)C(=O)N[C@@H](CCCNC(=N)N)C(=O)N[C@@H](CC(C)C)C(=O)N[C@@H](CC(C)C)C(=O)N[C@@H](CCCNC(=N)N)C(=O)N[C@@H](CCCCN)C(=O)NCC(N)=O | broth microdilution | ATCC 35556 | 18 h, 37 °C | 1.88 µM
CC[C@H](C)[C@H](NC(=O)[C@H](CC(C)C)NC(=O)[C@H](CCCNC(=N)N)NC(=O)[C@@H](N)CCCNC(=N)N)C(=O)N[C@@H](CCCNC(=N)N)C(=O)N[C@@H](CCCCN)C(=O)N[C@@H](CC(C)C)C(=O)N[C@@H](CCCCN)C(=O)NCC(=O)N1CCC[C@H]1C(=O)N[C@H](C(=O)N[C@H](C(=O)N[C@@H](Cc1ccc(O)cc1)C(=O)N[C@@H](CC(C)C)C(=O)N[C@@H](Cc1ccc(O)cc1)C(=O)N[C@@H](Cc1ccccc1)C(=O)N[C@@H](CCCCN)C(=O)N[C@@H](CC(C)C)C(=O)N[C@@H](CCC(N)=O)C(=O)N[C@@H](CC(C)C)C(=O)N[C@@H](CC(C)C)C(=O)N[C@@H](CCCCN)C(=O)N[C@@H](CCCCN)C(N)=O)[C@@H](C)CC)[C@@H](C)CC | broth microdilution | KCTC 1621, Mueller-Hinton broth | 24 h, 37 °C | 64 µM
CC[C@H](C)[C@H](N)C(=O)N[C@@H](CCCNC(=N)N)C(=O)N[C@H](C(=O)N[C@@H](Cc1c[nH]c2ccccc12)C(=O)N[C@@H](CCCCN)C(=O)N[C@@H](CCCCN)C(=O)N[C@@H](Cc1ccccc1)C(=O)N[C@H](C(=O)N[C@@H](CCCNC(=N)N)C(=O)N[C@@H](CCCCN)C(=O)N[C@@H](CCSC)C(=O)N[C@@H](CCCCN)C(=O)N[C@@H](C)C(=O)N[C@H](C(=O)N[C@@H](Cc1ccc(O)cc1)C(=O)N[C@@H](Cc1c[nH]cn1)C(N)=O)[C@@H](C)CC)C(C)C)C(C)C | broth dilution | ATCC 25923, Mueller-Hinton broth | 24 h, 37 °C | 100 µM
CC[C@H](C)[C@H](NC(=O)[C@H](CCCCN)NC(=O)[C@H](CCCCN)NC(=O)CNC(=O)[C@H](CCCCN)NC(=O)[C@H](CC(C)C)NC(=O)[C@H](CCCCN)NC(=O)[C@H](CCCNC(=N)N)NC(=O)[C@@H](NC(=O)[C@H](CC(C)C)NC(=O)[C@H](CCCNC(=N)N)NC(=O)[C@@H](N)CCCNC(=N)N)[C@@H](C)CC)C(=O)N[C@@H](Cc1ccc(O)cc1)C(=O)N[C@@H](CC(C)C)C(=O)N[C@@H](Cc1ccc(O)cc1)C(=O)N[C@@H](Cc1ccccc1)C(=O)N[C@@H](CCCCN)C(=O)N[C@@H](CC(C)C)C(=O)N[C@@H](CCC(N)=O)C(=O)N[C@@H](CC(C)C)C(=O)N[C@@H](CC(C)C)C(=O)N[C@@H](CCCCN)C(=O)N[C@@H](CCCCN)C(N)=O | broth microdilution | KCTC 1621, Mueller-Hinton broth | added: NH4Cl 6 µM | 16 µM
CC[C@H](C)[C@H](NC(=O)[C@H](Cc1ccc(O)cc1)NC(=O)[C@@H](NC(=O)[C@H](Cc1c[nH]c2ccccc12)NC(=O)[C@@H]1CCCN1C(=O)[C@@H](NC(=O)[C@H](C)N)[C@@H](C)CC)[C@@H](C)CC)C(=O)N[C@@H](Cc1ccc(O)cc1)C(=O)N[C@@H](CCCNC(=N)N)C(=O)N[C@@H](CC(C)C)C(=O)N[C@@H](CC(C)C)C(=O)N[C@@H](CCCNC(=N)N)C(=O)N[C@@H](CCCCN)C(=O)NCC(=O)O | broth microdilution | ATCC 19609 | 18 h, 37 °C | 1.88 µM
CC[C@H](C)[C@H](N)C(=O)N[C@@H](CC(C)C)C(=O)NCC(=O)N[C@H](CCCNC(=N)N)C(=O)N[C@H](C(=O)N[C@@H](Cc1c[nH]c2ccccc12)C(=O)N[C@@H](CCCCN)C(=O)NCC(=O)N[C@H](C(=O)N[C@@H](CCCCN)C(=O)N[C@@H](CC(=O)O)C(=O)N[C@H](C(=O)N[C@@H](CC(C)C)C(N)=O)[C@@H](C)CC)[C@@H](C)CC)[C@@H](C)CC | broth microdilution | ATCC 25923 | concentration not given, added: BSA | 6.25 µM
CC[C@H](C)[C@H](NC(=O)[C@H](CC(C)C)NC(=O)[C@H](CCCCN)NC(=O)[C@@H](NC(=O)[C@H](C)NC(=O)[C@H](CCC(=O)O)NC(=O)[C@H](Cc1c[nH]cn1)NC(=O)[C@@H](NC(=O)[C@H](CCCCN)NC(=O)[C@H](CCC(N)=O)NC(=O)[C@H](Cc1ccccc1)NC(=O)[C@@H](NC(=O)[C@H](CCCCN)NC(=O)[C@@H](N)CCCCN)C(C)C)[C@@H](C)CC)[C@@H](C)CC)C(N)=O | CLSI broth microdilution | ATCC 25923 | 18 h, 37 °C | 32 µM
CC[C@H](C)[C@H](NC(=O)[C@H](CCCCN)NC(=O)[C@H](CC(=O)O)NC(=O)[C@H](CC(C)C)NC(=O)[C@@H](NC(=O)[C@H](CC(N)=O)NC(=O)[C@H](CC(C)C)NC(=O)[C@@H](NC(=O)[C@H](Cc1ccccc1)NC(=O)[C@H](CCCCN)NC(=O)[C@H](CCCCN)NC(=O)CNC(=O)[C@H](C)NC(=O)[C@H](CC(N)=O)NC(=O)[C@H](CCCCN)NC(=O)[C@H](Cc1ccccc1)NC(=O)[C@H](CC(N)=O)NC(=O)[C@H](CCC(=O)O)NC(=O)[C@H](Cc1c[nH]c2ccccc12)NC(=O)[C@H](CC(C)C)NC(=O)[C@@H](N)CO)[C@@H](C)CC)[C@@H](C)CC)C(=O)N[C@@H](CCCNC(=N)N)C(N)=O |  | ATCC 6538 | overnight, 37 °C, added: 150 mM NaCl | 4 µM
CN[C@H](CC(C)C)C(=O)N[C@H]1C(=O)N[C@@H](CC(N)=O)C(=O)N[C@H]2C(=O)N[C@H]3C(=O)N[C@H](C(=O)N[C@H](C(=O)O)c4cc(O)cc(O)c4-c4cc3ccc4O)[C@H](O)c3ccc(c(Cl)c3)Oc3cc2cc(c3O[C@@H]2O[C@H](CO)[C@@H](O)[C@H](O)[C@H]2O[C@H]2C[C@](C)(N)[C@H](O)[C@H](C)O2)Oc2ccc(cc2Cl)[C@H]1O | broth microdilution | COL (MRSA), cation-adjusted Mueller-Hinton broth |  | 2 µg/mL
CC[C@H](C)[C@H](NC(=O)[C@H](CC(C)C)NC(=O)[C@@H](NC(=O)[C@H](CCCNC(=N)N)NC(=O)[C@H](CCCNC(=N)N)NC(=O)[C@H](CCCNC(=N)N)NC(=O)[C@@H](N)CCCNC(=N)N)[C@@H](C)CC)C(=O)N[C@@H](CCCNC(=N)N)C(=O)N[C@@H](CCCNC(=N)N)C(=O)N[C@H](C(=O)N[C@@H](CC(C)C)C(=O)N[C@@H](CCCNC(=N)N)C(=O)N[C@@H](CC(C)C)C(=O)N[C@@H](CCCNC(=N)N)C(=O)N[C@@H](CO)C(=O)N[C@@H](CO)C(=O)N[C@@H](C)C(=O)N[C@@H](Cc1ccc(O)cc1)C(N)=O)C(C)C | broth microdilution |  | 24 h, 37 °C | 32 µM
CC[C@H](C)[C@H](NC(=O)[C@H](CC(C)C)NC(=O)[C@H](CCCNC(=N)N)NC(=O)[C@@H](N)CCCNC(=N)N)C(=O)N[C@@H](CC(C)C)C(=O)N[C@H](C(=O)N[C@@H](CCCCN)C(=O)N[C@H](C(=O)NCC(=O)N1CCC[C@H]1C(=O)N[C@H](C(=O)N[C@H](C(=O)N[C@@H](Cc1ccc(O)cc1)C(=O)N[C@@H](CCCCN)C(=O)N[C@@H](Cc1ccc(O)cc1)C(=O)N[C@@H](Cc1ccccc1)C(=O)N[C@@H](CCCCN)C(=O)N[C@@H](CCCCN)C(=O)N[C@@H](CCC(N)=O)C(=O)N[C@@H](CC(C)C)C(=O)N[C@@H](CC(C)C)C(=O)N[C@@H](CCCCN)C(=O)N[C@@H](CC(C)C)C(N)=O)[C@@H](C)CC)[C@@H](C)CC)[C@@H](C)O)[C@@H](C)O |  | CCARM 3090, methicillin-resistant, Mueller-Hinton broth | 24 h | 64 µM
c1ccc(CCOC2CCCc3c2[nH]c2ccccc32)cc1 (stereo not shown) | broth microdilution | SG511 |  | > 16 µg/mL
Cn1c(=O)cnc2ccc(F)c(CCNC[C@H]3CN(c4cnc5c(n4)NC(=O)CO5)C(=O)O3)c21 |  | ATCC 29213 |  | 0.008 µg/mL
CN[C@H](CC(C)C)C(=O)N[C@H]1C(=O)N[C@@H](CC(N)=O)C(=O)N[C@H]2C(=O)NC3C(=O)N[C@H](C(=O)N[C@H](C(=O)NCCC[N+](C)(C)C)c4cc(O)cc(O)c4-c4cc3ccc4O)[C@H](O)c3ccc(c(Cl)c3)Oc3cc2cc(c3OC2OC(CO)C(O)[C@H](O)[C@@H]2O[C@H]2CC(C)(NCc3ccc(-c4ccc(Cl)cc4)cc3)[C@H](O)[C@H](C)O2)Oc2ccc(cc2Cl)[C@H]1O (stereo partly shown) |  | VRS2 (VanA VRSA) |  | 4 µg/mL
CC[C@H](C)[C@H](NC(=O)[C@H](CCCCN)NC(=O)[C@H](CCCNC(=N)N)NC(=O)[C@H](CCCNC(=N)N)NC(=O)[C@H](CC(C)C)NC(=O)[C@H](CCCCN)NC(=O)[C@H](CCCCN)NC(=O)[C@H](Cc1ccccc1)NC(=O)[C@H](CC(C)C)NC(=O)CNC(=O)[C@H](CCCNC(=N)N)NC(=O)[C@@H](N)CCCNC(=N)N)C(=O)N[C@@H](CCCCN)C(=O)N[C@@H](CCCCN)C(=O)NCC(=O)N[C@@H](Cc1ccccc1)C(=O)N[C@@H](CCCCN)C(=O)N[C@@H](CCCCN)C(=O)N[C@H](C(=O)N[C@@H](Cc1ccccc1)C(=O)N[C@@H](CCCCN)C(=O)N[C@@H](CCCNC(=N)N)C(=O)N[C@@H](CC(C)C)C(=O)N1CCC[C@H]1C(=O)N1CCC[C@H]1C(=O)N[C@H](C(=O)NCC(=O)N[C@H](C(=O)NCC(=O)N[C@H](C(=O)N[C@@H](CO)C(=O)O)C(C)C)C(C)C)C(C)C)[C@@H](C)CC | broth microdilution | MRSA CMCC 43300 |  | 2.58 µM

A few entries again:
SMILES | assay | test system | conditions | MIC
CC[C@H](C)[C@H](NC(=O)[C@H](CC(C)C)NC(=O)[C@H](CCCNC(=N)N)NC(=O)[C@@H](N)CCCNC(=N)N)C(=O)N[C@@H](CC(C)C)C(=O)N[C@H](C(=O)N[C@@H](CCCCN)C(=O)N[C@H](C(=O)NCC(=O)N1CCC[C@H]1C(=O)N[C@H](C(=O)N[C@H](C(=O)N[C@@H](Cc1ccc(O)cc1)C(=O)N[C@@H](CCCCN)C(=O)N[C@@H](Cc1ccc(O)cc1)C(=O)N[C@@H](Cc1ccccc1)C(=O)N[C@@H](CCCCN)C(=O)N[C@@H](CCCCN)C(=O)N[C@@H](CCC(N)=O)C(=O)N[C@@H](CC(C)C)C(=O)N[C@@H](CC(C)C)C(=O)N[C@@H](CCCCN)C(=O)N[C@@H](CC(C)C)C(N)=O)[C@@H](C)CC)[C@@H](C)CC)[C@@H](C)O)[C@@H](C)O |  | CCARM 3090, methicillin-resistant, Mueller-Hinton broth | 24 h | 64 µM
c1ccc(CCOC2CCCc3c2[nH]c2ccccc32)cc1 (stereo not shown) | broth microdilution | SG511 |  | > 16 µg/mL
Cn1c(=O)cnc2ccc(F)c(CCNC[C@H]3CN(c4cnc5c(n4)NC(=O)CO5)C(=O)O3)c21 |  | ATCC 29213 |  | 0.008 µg/mL
